Assay results of several laboratories.
Protocols differ between the studies behind these lines. “And” joins repeats or separate records; there may be more than shown.
Target: Serine/threonine-protein kinase Chk1 (CHEK1, Homo sapiens, UniProt O14757)
One construct used (O14757 1-476): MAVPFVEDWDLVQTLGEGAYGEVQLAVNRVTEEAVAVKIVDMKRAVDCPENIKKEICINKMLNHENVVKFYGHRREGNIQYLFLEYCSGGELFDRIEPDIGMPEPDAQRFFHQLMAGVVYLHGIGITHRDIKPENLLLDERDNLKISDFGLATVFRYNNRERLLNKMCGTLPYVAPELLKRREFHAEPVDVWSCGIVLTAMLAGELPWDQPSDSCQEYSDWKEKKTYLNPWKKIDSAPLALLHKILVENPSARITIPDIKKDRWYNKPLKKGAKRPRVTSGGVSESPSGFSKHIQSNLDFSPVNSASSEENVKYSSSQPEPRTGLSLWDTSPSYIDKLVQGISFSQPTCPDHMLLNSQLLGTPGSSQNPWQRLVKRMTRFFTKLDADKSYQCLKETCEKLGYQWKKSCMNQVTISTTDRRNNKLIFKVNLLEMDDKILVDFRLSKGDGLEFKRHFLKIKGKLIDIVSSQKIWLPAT

| SMILES | assay | test system | setting | how to read | endpoint | result |
| --- | --- | --- | --- | --- | --- | --- |
| CCn1cc(C(=O)O)c(=O)c2c(N)c(F)c(NC3CCCCC3)cc21 | kinase activity | – | 0.1 µM, with: ATP at Km | – | inhibition | -10% |
| CN1CC[C@@H](COc2cnc(C#N)cc2-c2ccn3nc(NC(=O)C4CC4)cc3c2)C1 | enzyme activity, inhibitor | – | 1 µM | – | inhibition | 10% |
| Cc1cccc(O[C@H]2CCC[C@@H](C(C)CNCc3ccncc3)C2)c1 (relative stereo) | kinase activity, kinome panel screening | – | 1 µM | – | inhibition | 2% |
| N[C@H]1CC[C@H](Nc2nccc(-c3cccnc3Oc3ccc(NC(=O)NC4CC4)c4ccccc34)n2)CC1 | kinobead competition pulldown | HEK293/HCT116 lysate mixture | 10 µM, 1 h, 4 °C | lower = stronger competition | log2 LFQ intensity | 24.2 and 24.3 |
| Cc1cccc(-c2ccc3nc(NC(=O)C4CCCCC4)nn3c2)c1 | enzyme activity, Dundee kinase panel | – | 10 µM | – | remaining activity | 79% |
| CN1CCN(Cc2ccc(NC(=O)c3cccc(C#Cc4cnc(N)c5ncccc45)c3)cc2C(F)(F)F)CC1 | cell-free assay, competition with immobilised ligand | – | 0.5 µM | – | remaining binding | 82% |
| O=C=[N][Ru-4]123([n]4c5ccc(O)cc5c5c6c(c7cc(F)c[n+]1c7c54)C(=O)NC6=O)[S+]1CC[S+]2CC[S+]3CC1 (centres unmarked) | enzyme activity | – | 100 nM, human enzyme, with: 10 µM ATP | baseline: untreated | remaining activity | 97% |
| Nc1ncc2c(n1)-c1c([nH]c3ccc(C4=CCOCC4)cc13)CCC2 | binding, competition with immobilised ligand | – | 1 µM | – | remaining binding | 100% |
| COc1cc(Nc2nccc(-c3cnn4nc(OC)ccc34)n2)cc(C(F)(F)F)c1 | binding, competition with immobilised ligand | – | 1 µM | – | remaining binding | 100% |
| Nc1nc(Nc2ccccc2)sc1C(=O)c1ccccc1 | enzyme activity, inhibitor | – | 10 µM | – | remaining activity | 24% |
| NC(=O)[C@@H](O)C[C@H]1CCc2sc3ncnc(O[C@H]4CC[C@H](N5CCOCC5)CC4)c3c21 | enzyme activity, inhibitor | – | 10 µM | – | inhibition | 1% |
| Cc1cnc2nc1Nc1cccc(c1)COC/C=C/COCc1cc(ccc1OCCN1CCOCC1)N2 | – | – | concentration not given | – | percent of control | 96% |
| C=CC(=O)Nc1cccc(-c2cnc3[nH]cc(C(=O)NC(C)(C)C)c3n2)c1 | enzyme activity, inhibitor | – | 0.1 µM | – | inhibition | 17% |
| CC(=O)N1c2ccc(-c3ccc(CNC(=O)c4cn5cc(-c6cnc(N)nc6)nc(N6CCOCC6)c5n4)cc3)cc2CC[C@@H]1C | KINOMEscan | – | 10 µM | – | remaining binding | 97% |
| C[C@H]1CN(C(=O)c2cn(-c3ccnc(N)n3)c3cc(C#CC4(O)CCCCC4)ccc23)CCN1 | enzyme activity, inhibitor, FRET | – | 1 µM | – | inhibition | -2% |
| CNS(=O)(=O)Nc1nccc(Cc2c(C)c3ccc(Oc4ncccc4F)cc3oc2=O)c1F | binding, competition with immobilised ligand | – | 10 µM | – | remaining binding | 98% |
| C=C1CCCCCCCCCC(CO)C1=O (centres unmarked) | cell-free assay, competition with immobilised ligand | – | 10 µM | – | remaining binding | 100% |
| CN1CCN(Cc2ccc(-c3ccc(CO[C@H]4CCC[C@@H]4NC(=O)c4cc(-c5cnn(C)c5)cnc4N)cc3)cc2)CC1 | enzyme activity, inhibitor | – | 0.1 µM | – | inhibition | -7% |
| CCN1CCN(Cc2ccc(C(=O)Nc3ccc(C)c(NCc4cnc5[nH]ccc5c4OC)c3)cc2C(F)(F)F)CC1 | binding, competition with immobilised ligand | – | 1 µM | – | remaining binding | 100% |
| C=CC(=O)N1CCc2ccc(-n3c(=O)ccc4cnc5ccc(-c6cnn(C)c6)cc5c43)cc21 | KINOMEscan | – | 1 µM | baseline: DMSO control | remaining binding | 100% |
| O=c1c(-c2ccc(Cl)c(CN3CCOCC3)c2)coc2cc(O)ccc12 | enzyme activity, inhibitor | – | 1 µM | – | remaining activity | 95% |
| COc1ccc(NC(=O)Nc2ccc3c(c2)C(=O)N(C(C)CO)CC(C)C(CN(C)Cc2ccc4c(c2)OCO4)O3)cc1 (centres unmarked) | kinase activity, KinaseProfiler | – | 0.03 µM, species human | baseline: control | remaining activity | 86% |
| Cc1ccc(C)c(-c2ccc3nc(NC(=O)C4CCCCC4)nn3c2)c1 | enzyme activity, Dundee kinase panel | – | 10 µM | – | remaining activity | 77% |

A few entries again:
| SMILES | assay | test system | setting | how to read | endpoint | result |
| --- | --- | --- | --- | --- | --- | --- |
| O=c1c(-c2ccc(Cl)c(CN3CCOCC3)c2)coc2cc(O)ccc12 | enzyme activity, inhibitor | – | 1 µM | – | remaining activity | 95% |
